{"data": "Published values pooled from the literature", "note": "Each numbered part is a random draw from the data of one study; scales do not carry over between parts."}
{"data": "Series 1", "target": "RNA binding protein fox-1 homolog 2, RRM domain, GST-SBP tag (RBFOX2, Homo sapiens, UniProt O43251-10, residues 100-194)", "technique": "RNA Bind-n-Seq", "form": "RNA", "sample": "in vitro", "tested at": "365 nM", "notes": "natural RNA segment, single round, ends assumed", "relative to": "no-protein control", "reading": "higher = stronger binding", "constant ends, left off below": "GGGAGUUCUACAGUCCGACGAUC … UGGAAUUCUCGGGUGCCAA", "Construct (chain)": "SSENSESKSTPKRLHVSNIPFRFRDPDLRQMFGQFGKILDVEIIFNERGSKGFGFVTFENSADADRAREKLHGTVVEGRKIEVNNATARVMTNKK"}
{"Strand": "UCUGUUUGUCUCGUGGGGGGAGGUGGACAGUCCUGCGGAAAUGUGUCUUGUCUCCAUUUGGAUAAAAGGAACCAACCAACAAACAAUGCCAUCACUGGAAUUUCCCACCG", "RBNS enrichment (R)": 1.93}
{"Strand": "GAAGAGAAUACCCCCUCUCUACCCCUGCUCCAAGACACUGUAGAUGCUAGUGUCGGAGUGUUCUCUGUAACGCGACAGUUCCUUCUGUUGCAAUAGCCCCCCUGCAACAC", "RBNS enrichment (R)": 0.793}
{"Strand": "AGUGAUGGCUCACUCAGACUGUCCUGGCAGCCAAAGUGACUUUCUGGAGCUCUGCUUGCCUGUCCCCACCUCGCUGGAAACCAUCUCGCCAUUAGCGCAACUGAUUUCCC", "RBNS enrichment (R)": 0.305}
{"Strand": "UCAAUCUCCUUCUAUCCCUCCUCCCCAAGCAGUCAGGUUAUGGGCUAUGGCCCUAUGUCACUCUGCCCUCUUGGUUUCUGCUGCCCUACGGCAGCUGGUGGAAUCUAUUG", "RBNS enrichment (R)": 0.198}
{"Strand": "AAAAAAAAAAUGCAAAUCCGGGAUGGAUAAAUGUAGGGUUUUGGUCACUGUCCCCAUCGGCUCCUCAGAGUUGUUGGCCACCCUACCACUAACUGGAAGAGGAAACGCUG", "RBNS enrichment (R)": 0.333}
{"Strand": "GCUGGGUUCUGUGAAGUUACGUAUUUAUUGAGCUUUUGGUUCUUUUAUAAAGACUUGUCUAGACUCCCUGGGAAGAGUCCUUUGCUUUGGGGCCCAGUGACUCGGGGCAC", "RBNS enrichment (R)": 0.408}
{"Strand": "CUCAGGCAGGCCUGACCCGGCGGCACAGCCUGGCAGGGACCUCGUCCCCAAGCCUGGCAGAAUGAGAGGGGUUGAGGUCCCGAGCGCCACUCCUAGCCUUGCCGCCUUCA", "RBNS enrichment (R)": 1.31}
{"Strand": "AAAUUACUAAGCUUUUCCCAUAUGUUCUCGUACUUUCUCAAAUCCCUAUAAAGAAUUACUUGUUAUCUAUUAAAAAUCUCCUUUACCCAAAUCUGUAUUAUGGUUUCGCC", "RBNS enrichment (R)": 1.55}
{"Strand": "CUGUGUGGAUGACUGUGUGACUGGGAGCCUGGACCGGCUGACAGGCCAUGAGCUACCCACUGGCAUCUCCAGGUUUUUUGUAGCAAACAGCCACUUAGUGCUUUGUCCUG", "RBNS enrichment (R)": 0.314}
{"Strand": "AAAUCACUGCCGGAGACAGCCCACAUUUCCUUGUAGUUGUUAUUAGGGCACAAACCACUCCACAGUCCCAGUGUGGAGUCACAGUCUAGAGAGAAUUGGAAAUGCACGUG", "RBNS enrichment (R)": 1.08}
{"Strand": "ACAGGCUGGAGCAGCCCAGGAGAUGGGCCUAAAAUGUUCUGGAUCCCUUGGGUCCUAGUGUUAUGUUCCAGUCUGCCCACCUGUGCUCAGGAUGCAGCCCUGGGAUCCAG", "RBNS enrichment (R)": 0.383}
{"Strand": "UCCACACUAUAAAUGAUAUGACUACUGUUUGGGGUUUCUGGGCCCCCAUCCGUGUACGUAUGUGGCAUUUCCAGGUAUGACUGAGUGUGAGAGACAUGUCAGAGGCUCUU", "RBNS enrichment (R)": 0.8}
{"data": "Series 2", "target": "Prothrombin, mature alpha-thrombin (F2, Homo sapiens, UniProt P00734)", "technique": "aptamer microarray, sandwich", "form": "DNA with 2'F-ANA", "sample": "in vitro", "tested at": "200 nM", "notes": "whole 15-mer aptamer, many near background", "added": "Cy3 exosite-II aptamer, 400 nM", "reading": "higher = stronger binding", "strand": "GGTTGGTGTGGTTGG"}
{"Modification": "2'F-ANA at 1 2 6 7 8 9 11 12", "mean fluorescence intensity": "245 a.u."}
{"Modification": "2'F-ANA at 1 3 4 7 8 11 12 15", "mean fluorescence intensity": "405 a.u."}
{"Modification": "2'F-ANA at 1 3 6 7 11 13", "mean fluorescence intensity": "188 a.u."}
{"Modification": "2'F-ANA at 1 2 8 9 13 14 15", "mean fluorescence intensity": "54.7 a.u."}
{"Modification": "2'F-ANA at 3 5 6 8 9 10 11 14 15", "mean fluorescence intensity": "52.2 a.u."}
{"Modification": "2'F-ANA at 1 2 4 5 8 10 11 12", "mean fluorescence intensity": "45.4 a.u."}
{"Modification": "2'F-ANA at 1 4 8 9 10 12 15", "mean fluorescence intensity": "58.3 a.u."}
{"Modification": "2'F-ANA at 1 6 8 10 15", "mean fluorescence intensity": "59.8 a.u."}
{"Modification": "2'F-ANA at 1 2 3 5 6 9 10 11 15", "mean fluorescence intensity": "52.4 a.u."}
{"Modification": "2'F-ANA at 1 3 4 7 9 10 11 12 13 15", "mean fluorescence intensity": "112 a.u."}
{"Modification": "2'F-ANA at 2 3 5 9 10 11 13 14 15", "mean fluorescence intensity": "79 a.u."}
{"Modification": "2'F-ANA at 2 5 9 13 14", "mean fluorescence intensity": "41.8 a.u."}
{"Modification": "2'F-ANA at 1 2 4 5 10 11 14", "mean fluorescence intensity": "49 a.u."}
{"Modification": "2'F-ANA at 2 6 10 13 14 15", "mean fluorescence intensity": "74.3 a.u."}
{"Modification": "2'F-ANA at 2 4 5 6 7 8 9 10 11 12 13 15", "mean fluorescence intensity": "134 a.u."}
{"Modification": "2'F-ANA at 1 2 3 5 6 13 14", "mean fluorescence intensity": "47.3 a.u."}
{"Modification": "2'F-ANA at 1 4 8 9 12 13 14 15", "mean fluorescence intensity": "66.1 a.u."}
{"Modification": "2'F-ANA at 2 3 5 6 9 12 15", "mean fluorescence intensity": "179 a.u."}
{"Modification": "2'F-ANA at 3 5 6 7 8 9 11 13 15", "mean fluorescence intensity": "82.4 a.u."}
{"Modification": "2'F-ANA at 1 7 10 11 12 14 15", "mean fluorescence intensity": "43 a.u."}
{"Modification": "2'F-ANA at 1 2 3 4 7 9 10 11 12 14 15", "mean fluorescence intensity": "50.2 a.u."}
{"Modification": "2'F-ANA at 1 2 3 5 7 9 10 12 14 15", "mean fluorescence intensity": "170 a.u."}
{"Modification": "2'F-ANA at 1 2 4 5 11 13 14 15", "mean fluorescence intensity": "46.1 a.u."}
{"Modification": "2'F-ANA at 1 4 7 11 12", "mean fluorescence intensity": "261 a.u."}
{"Modification": "2'F-ANA at 4 6 7 10 12", "mean fluorescence intensity": "121 a.u."}
{"data": "Series 3", "target": "ATP-dependent RNA helicase DDX3X, helicase core (DDX3X, Homo sapiens, UniProt O00571, residues 132-607)", "technique": "RNA Bind-n-Seq", "form": "RNA", "sample": "in vitro", "tested at": "not given", "notes": "4-mer, random 30-nt RNA, single round", "added": "RocA, ADP, phosphate", "relative to": "input library", "reading": "higher = stronger binding", "sequence of UniProt O00571 (132-607, looked up)": "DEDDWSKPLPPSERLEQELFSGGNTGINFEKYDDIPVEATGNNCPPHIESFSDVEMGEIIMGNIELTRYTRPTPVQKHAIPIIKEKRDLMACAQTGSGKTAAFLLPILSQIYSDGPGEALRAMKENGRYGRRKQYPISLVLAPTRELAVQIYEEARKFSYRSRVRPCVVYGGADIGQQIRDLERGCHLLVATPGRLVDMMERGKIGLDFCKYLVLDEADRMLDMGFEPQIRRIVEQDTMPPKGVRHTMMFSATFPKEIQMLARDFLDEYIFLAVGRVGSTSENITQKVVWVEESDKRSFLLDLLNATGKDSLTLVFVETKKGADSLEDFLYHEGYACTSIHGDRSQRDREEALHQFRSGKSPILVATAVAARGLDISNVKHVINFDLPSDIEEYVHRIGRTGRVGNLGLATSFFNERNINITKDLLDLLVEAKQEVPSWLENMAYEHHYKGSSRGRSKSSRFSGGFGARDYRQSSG"}
{"Strand": "CACC", "4-mer enrichment [fold]": 0.769}
{"Strand": "ACCG", "4-mer enrichment [fold]": 0.76}
{"Strand": "GGUG", "4-mer enrichment [fold]": 1.31}
{"Strand": "GUGC", "4-mer enrichment [fold]": 0.838}
{"Strand": "UUUA", "4-mer enrichment [fold]": 0.982}
{"Strand": "CUAA", "4-mer enrichment [fold]": 0.763}
{"Strand": "AGGU", "4-mer enrichment [fold]": 1.15}
{"Strand": "GGAG", "4-mer enrichment [fold]": 2.67}
{"Strand": "CCGU", "4-mer enrichment [fold]": 0.75}
{"Strand": "UUCA", "4-mer enrichment [fold]": 0.709}
{"Strand": "UGUC", "4-mer enrichment [fold]": 0.933}
{"Strand": "CGGG", "4-mer enrichment [fold]": 1.12}
{"Strand": "AGUU", "4-mer enrichment [fold]": 1.36}
{"Strand": "CACU", "4-mer enrichment [fold]": 0.656}
{"Strand": "UACU", "4-mer enrichment [fold]": 0.684}
{"Strand": "ACUC", "4-mer enrichment [fold]": 0.598}
{"Strand": "GCGA", "4-mer enrichment [fold]": 1.12}
{"Strand": "UAAU", "4-mer enrichment [fold]": 0.933}
{"Strand": "ACUU", "4-mer enrichment [fold]": 0.667}
{"Strand": "CAGC", "4-mer enrichment [fold]": 0.713}
{"Strand": "GAUU", "4-mer enrichment [fold]": 0.926}
{"Strand": "AUGU", "4-mer enrichment [fold]": 0.942}
{"Strand": "AUGA", "4-mer enrichment [fold]": 1.39}
{"Strand": "CCAU", "4-mer enrichment [fold]": 0.739}
{"Strand": "ACCA", "4-mer enrichment [fold]": 0.735}
{"data": "Series 4", "target": "Interferon regulatory factor 3, full length, phosphomimetic (IRF3, Homo sapiens, UniProt Q14653, residues 1-427, S386D/S396D/S398D/S402D/T404D/S405D)", "technique": "protein-binding microarray", "form": "double-stranded DNA, one strand shown", "sample": "in vitro", "tested at": "2540 nM top", "notes": "60-bp whole probe", "added": "salmon DNA 0.4 mg/ml", "relative to": "random background probes", "reading": "higher = stronger binding", "constant ends, left off below": "GCCTAGCAC … GTCTTGATTCGCTTGACGCTGCTG", "sequence of UniProt Q14653 (whole entry, unmodified, looked up)": "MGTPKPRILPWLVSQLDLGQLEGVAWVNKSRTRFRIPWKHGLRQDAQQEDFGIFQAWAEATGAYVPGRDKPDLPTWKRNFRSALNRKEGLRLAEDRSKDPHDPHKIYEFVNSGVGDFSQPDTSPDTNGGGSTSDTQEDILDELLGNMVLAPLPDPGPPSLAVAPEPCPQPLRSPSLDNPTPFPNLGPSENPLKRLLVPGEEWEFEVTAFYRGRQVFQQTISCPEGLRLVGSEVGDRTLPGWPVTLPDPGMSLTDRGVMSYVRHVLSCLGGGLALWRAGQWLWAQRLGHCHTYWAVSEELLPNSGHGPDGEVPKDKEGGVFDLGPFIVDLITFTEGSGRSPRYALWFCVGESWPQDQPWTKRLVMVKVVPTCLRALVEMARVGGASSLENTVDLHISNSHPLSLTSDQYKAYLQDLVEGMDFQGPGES"}
{"Strand": "GACGATATCGGGTGTCGAGACGTGCTA", "fitted relative affinity [z-score]": 0.0171}
{"Strand": "GACGTTTTCGACACTGGGGACGTGCTA", "fitted relative affinity [z-score]": 1.57}
{"Strand": "GACGATTTCGGGTGTCGAGACGTGCTA", "fitted relative affinity [z-score]": 1.32}
{"Strand": "TTAGGTATCGATTTTCGGTTAGTGCTA", "fitted relative affinity [z-score]": 3.43}
{"Strand": "GACGATTTCCGGACTGGAGACGTGCTA", "fitted relative affinity [z-score]": 1.9}
{"Strand": "TTAGGACTGGGTCTCGGTTGGTGCTAG", "fitted relative affinity [z-score]": -0.832}
{"Strand": "TTAGGACTGCTTCTCGTTTAGTGCTAG", "fitted relative affinity [z-score]": 0.0414}
{"Strand": "GAGGCAAGGAGGGAGAACAGGTGCTAG", "fitted relative affinity [z-score]": -1.27}
{"Strand": "TTAGATTGCGGGACTGGATTAGTGCTA", "fitted relative affinity [z-score]": -0.326}
{"Strand": "TTAGATTTCGACTATCGGTTAGTGCTA", "fitted relative affinity [z-score]": 0.874}
{"Strand": "TTAGGTTTCGACTATCGGTTTGTGCTA", "fitted relative affinity [z-score]": 2.88}
{"Strand": "GACGGACTTGGGACTGGGGACGTGCTA", "fitted relative affinity [z-score]": -0.883}
{"Strand": "AGTCCTGTCCAAGATGAGGAGTGCTAG", "fitted relative affinity [z-score]": 0.167}
{"Strand": "GACGGTATCCTTATGCTGACGTGCTAG", "fitted relative affinity [z-score]": 3.95}
{"Strand": "TTAGGTATCCTTTTTCTTTAGTGCTAG", "fitted relative affinity [z-score]": 8.04}
{"Strand": "GACAGTATCGACTATCGGGACGTGCTA", "fitted relative affinity [z-score]": 0.442}
{"Strand": "TCAACTTTGGCATGTCTTACTGTGCTA", "fitted relative affinity [z-score]": -0.204}
{"Strand": "AAACCTCACAGTTTGTAAATGTGCTAG", "fitted relative affinity [z-score]": 0.28}
{"Strand": "GATGGTTTCGGGTTTCGGGACGTGCTA", "fitted relative affinity [z-score]": 5.57}
{"Strand": "GGGATTTTTAGTTAGAAAAAGTGCTAG", "fitted relative affinity [z-score]": 0.0124}
{"Strand": "GACGGATTCGGGTTTCGGGACGTGCTA", "fitted relative affinity [z-score]": 2.26}
{"Strand": "GTGTATATACTATATGCATGTGTGCTA", "fitted relative affinity [z-score]": 0.128}
{"Strand": "CCTTATCCCTAATCTCAGCCTGTGCTA", "fitted relative affinity [z-score]": 2.22}
{"Strand": "GACGGTATCGGTTTCGGGACGTGCTAG", "fitted relative affinity [z-score]": 7.29}
{"Strand": "GACGGTCTCCTTTTGCTGACGTGCTAG", "fitted relative affinity [z-score]": 3.61}
